Assay results from different studies.
Lines come from different studies, so protocols differ. ± marks the error that the study gave.

For C[C@@](Cc1ccc(O)c(O)c1)(NN)C(=O)O, the Tmax was 1.75 h (Parkinson's disease patients, plasma; oral, high levodopa Cmax subgroup (≥9 µmol/L), median).
With C[C@H]1CN(C(=O)CC#N)[C@]12CCN(c1ncnc3[nH]ccc13)C2 the Tmax was 1 h (healthy Japanese males, plasma; oral, 25 mg single dose).
For CN(C)C(=O)c1cc2cnc(Nc3ccc(N4CCNCC4)cn3)nc2n1C1CCCC1, the Tmax was 3.55 h (patients, plasma; oral, steady state, median, together with: tamoxifen).
COc1ccc([C@@H](O)c2cc(-c3ncnc4cc(N5CCOCC5)ccc34)c(F)cc2Cl)nn1 gave a Tmax of 0.5 h (median; healthy volunteers, plasma; oral, 100 mg, fasted oral suspension).
CN1CC[C@@H](c2c(O)cc(O)c3c(=O)cc(-c4ccc(C(F)(F)F)cc4Cl)oc23)[C@@H]1CO has a Tmax of 4 h (patients, plasma; oral, 100 mg continuous, day 1, cycle 1).
For CS(=O)(=O)c1ccc([C@@H](O)[C@@H](CF)NC(=O)C(Cl)Cl)cc1, the Tmax was 0.8 ± 0.11 h (Arbor Acres chickens, plasma; oral, 20 mg/kg, together with: quercetin 60 mg/kg pretreatment).
For CC(=O)c1c(C)c2cnc(Nc3ccc(N4CCNCC4)cn3)nc2n(C2CCCC2)c1=O, the Tmax was 5.8 h (cancer patients, plasma; oral, 75 mg, cycle 1 day 15, together with: neratinib 200 mg).
For CCCCCCCCCCCCCCCC(=O)N[C@@H](CCC(=O)NCCCC[C@@H]1NC(=O)[C@H]([C@@H](C)CC)NC(=O)[C@@H](NC(=O)[C@@H]2CCCN2C(=O)[C@H](Cc2ccccc2)NC(=O)[C@H](Cc2c[nH]cn2)NC(=O)[C@@H](NC(=O)[C@H](CC(=O)O)NC(=O)CC(C)C)[C@@H](C)O)CSSC[C@@H](C(=O)N[C@@H](CCCCN)C(N)=O)NC(=O)CNC(=O)[C@H](CCCCN)NC(=O)[C@H](CO)NC(=O)[C@H](CCCNC(=N)N)NC(=O)[C@@H]2CCCN2C(=O)[C@H](CCC(=O)O)NC(=O)[C@H](Cc2ccccc2)NC1=O)C(=O)O, the Tmax was 2 h (healthy volunteers, plasma; subcutaneous, 60 mg single, lyophilised formulation, median).
The Tmax of CCNC(=O)[C@@H]1CCCN1C(=O)[C@H](CCCNC(=N)N)NC(=O)[C@H](CC(C)C)NC(=O)[C@@H](CC(C)C)NC(=O)[C@H](Cc1ccc(O)cc1)NC(=O)[C@H](CO)NC(=O)[C@H](Cc1c[nH]c2ccccc12)NC(=O)[C@H](Cc1c[nH]cn1)NC(=O)[C@@H]1CCC(=O)N1 is reported as 2.77 ± 0.46 h (healthy female volunteers; oral, 4 mg single dose, fasted overnight).
The Tmax of CO[C@H]1CC[C@H](N2C(=O)CNc3ncc(-c4ccc(C(C)(C)O)nc4)nc32)CC1 is reported as 2 h (patients, plasma; oral, 15 mg, day 15).
The Tmax of O=C(c1cccnc1-c1ccncc1)N1CCC(O)(Cc2ccccc2)CC1 is reported as 0.5 h (healthy Japanese adults, plasma; oral, 200 mg twice daily, day 14, median).
CCCCC[C@H](O)CC[C@@H]1[C@H]2Cc3cccc(OCC(=O)O)c3C[C@H]2C[C@H]1O gave a Tmax of 0.26 h (LC-MS/MS; Japanese PAH patients, plasma; inhaled, 54 µg, age under 50 years, mean).
With C[C@H]1[C@H]2N(C(=O)CN(C)N2C(=O)NCc2ccccc2)[C@@H](Cc2ccc(OP(=O)(O)O)cc2)C(=O)N1Cc1cccc2cccnc12 the Tmax was 1 h (patients, plasma; intravenous infusion, 280 mg/m2 over 4 h, median).
With CCc1nc2c(C)cc(N3CCN(CC(=O)N4CC(O)C4)CC3)cn2c1N(C)c1nc(-c2ccc(F)cc2)c(C#N)s1 the Tmax was 2.5 h (healthy volunteers, fed, plasma; oral, 600 mg single dose, day 1, capsule).
For CCCCOCCOc1ccc(-c2ccc3c(c2)/C=C(/C(=O)Nc2ccc([S@@+]([O-])Cc4cncn4CCC)cc2)CCCN3CC(C)C)cc1, the Tmax was 5.9 h (mild hepatic impairment patients, plasma; oral, 150 mg, day 1, single dose, geometric mean).
With CN(CCC(=O)O)C(=O)c1ccc2c(c1)CC[C@@H]1[C@@H]2CC[C@]2(C)C(c3cncc(F)c3)=CC[C@@H]12 the Tmax was 2 h (premenopausal women, plasma; 60 mg once daily, after day 14, multiple dose, median).

Excerpt of the above:
CCCCC[C@H](O)CC[C@@H]1[C@H]2Cc3cccc(OCC(=O)O)c3C[C@H]2C[C@H]1O gave a Tmax of 0.26 h (LC-MS/MS; Japanese PAH patients, plasma; inhaled, 54 µg, age under 50 years, mean).
